Experimental data collected from several papers.
Numbers after ± are the reported error.
UniProt P21729, sequence (whole entry, looked up): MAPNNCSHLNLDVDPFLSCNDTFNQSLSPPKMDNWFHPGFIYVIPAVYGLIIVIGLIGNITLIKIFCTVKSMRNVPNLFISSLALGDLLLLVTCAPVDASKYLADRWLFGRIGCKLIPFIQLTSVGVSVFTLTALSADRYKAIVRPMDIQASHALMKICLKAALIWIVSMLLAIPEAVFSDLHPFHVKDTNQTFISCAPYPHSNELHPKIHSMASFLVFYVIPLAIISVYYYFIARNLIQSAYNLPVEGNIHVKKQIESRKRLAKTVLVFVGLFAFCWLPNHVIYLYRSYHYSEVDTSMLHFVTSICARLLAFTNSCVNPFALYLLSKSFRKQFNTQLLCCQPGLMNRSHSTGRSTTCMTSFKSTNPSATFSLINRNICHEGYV

CCCC[C@H](NC(=O)CCCCCCCNC(=O)c1ccc(NN)nc1)C(=O)N[C@H]1CC(=O)NCCCC[C@@H](C(N)=O)NC(=O)[C@H](Cc2c[nH]c3ccccc23)NC(=O)[C@H](CCCNC(=N)N)NC(=O)[C@@H](Cc2ccccc2)NC(=O)[C@H](Cc2c[nH]cn2)NC1=O [technetium-99m labelled]  uptake (C57 mouse, B16/F1 melanoma, liver; intravenous, 4 h): 1.26 ± 0.6 %ID/g
N=C(N)NCCC[C@@H]1NC(=O)[C@H](CCCCNC(=O)CC[C@H](NC(=O)CCOCCOCCOCCOCCNC(=O)CC[C@H](NC(=O)CN2CCN(CC(=O)O)CCN(CC(=O)O)CCN(CC(=O)O)CC2)C(=O)NCCOCCOCCOCCOCCC(=O)N[C@@H](CCC(=O)NCCCC[C@@H]2NC(=O)[C@@H](Cc3ccccc3)NC(=O)[C@H](CC(=O)O)NC(=O)CNC(=O)[C@H](CCCNC(=N)N)NC2=O)C(=O)NCCCC[C@@H]2NC(=O)[C@@H](Cc3ccccc3)NC(=O)[C@H](CC(=O)O)NC(=O)CNC(=O)[C@H](CCCNC(=N)N)NC2=O)C(=O)NCCCC[C@@H]2NC(=O)[C@@H](Cc3ccccc3)NC(=O)[C@H](CC(=O)O)NC(=O)CNC(=O)[C@H](CCCNC(=N)N)NC2=O)NC(=O)[C@@H](Cc2ccccc2)NC(=O)[C@H](CC(=O)O)NC(=O)CNC1=O [indium-111 labelled]  tumour to tissue ratio (athymic nude mice, female, U-87 MG glioma xenograft, tumour and lungs; intravenous, 24 h; relative to: tumour over lungs): 6.76 ± 3.99
CSCC[C@H](NC(=O)[C@H](CC(C)C)NC(=O)[C@H](Cc1c[nH]cn1)NC(=O)CNC(=O)[C@@H](NC(=O)[C@H](C)NC(=O)[C@H](Cc1c[nH]c2ccccc12)NC(=O)[C@H](CCC(N)=O)NC(=O)CCCCNC(=O)CSCCSCCP(CO)CO)C(C)C)C(N)=O [technetium-99m labelled]  uptake in blood (CF-1 mouse; intravenous, 24 h): 0 %ID
CC(C)C[C@H](NC(=O)[C@@H]1CCCN1C(=O)[C@H](CCCCN)NC(=O)[C@@H](N)CO)C(=O)N1CCC[C@H]1C(=O)N[C@@H](CCC(=O)O)C(=O)N[C@H](C(=O)N[C@H](C(=O)N[C@@H](CC(=O)O)C(=O)N[C@@H](CCC(=O)O)C(=O)N[C@@H](Cc1ccc(O)cc1)C(=O)N[C@@H](Cc1cn(CCOCCOCCOCCNC(=O)CCc2ccc(O)c(CN(CCN(CC(=O)O)Cc3cc(CCC(=O)NCCCC[C@H](NC(=O)N[C@@H](CCC(=O)O)C(=O)O)C(=O)O)ccc3O)CC(=O)O)c2)nn1)C(=O)O)[C@@H](C)O)C(C)C [gallium-68 labelled]  standardised uptake value (NMRI nu/nu mouse, LNCaP tumour, tumour; 10 MBq, high molar activity): 1.22 g/g
C[C@H](NC(=O)[C@H](CCC(N)=O)NC(=O)[C@H](C)NC(=O)[C@H](CCCCN)NC(=O)[C@H](CCC(N)=O)NC(=O)[C@H](C)NC(=O)[C@H](CCCCN)NC(=O)[C@H](CCC(N)=O)NC(=O)[C@H](C)NC(=O)[C@H](CCC(N)=O)NC(=O)[C@H](CCCCN)NC(=O)[C@H](C)NC(=O)[C@H](CCC(N)=O)NC(=O)[C@H](CCCCN)NC(=O)[C@H](C)NC(=O)[C@H](CCC(N)=O)NC(=O)[C@H](C)NC(=O)[C@H](CCCCN)NC(=O)[C@H](CCC(N)=O)NC(=O)[C@H](C)NC(=O)[C@H](CCCCN)NC(=O)[C@H](CO)NC(=O)[C@H](Cc1ccc(O)cc1)NC(=O)CNC(=O)CNC(=O)CN)C(=O)N[C@@H](CCCCN)C(=O)N[C@@H](CCC(N)=O)C(=O)N[C@@H](C)C(=O)N[C@@H](CCCCN)C(=O)N[C@@H](CCC(N)=O)C(=O)O  Kd (binding, SPR two-state model; rVλ6Wil fibrils): 0.015 µM
CC1(C)C(/C=C/C=C/C=C2/N(CCCCCC(=O)NCCCC[C@@H]3NC(=O)[C@@H](Cc4ccc(O)cc4)NC(=O)[C@H](CC(=O)O)NC(=O)CNC(=O)[C@H](CCCNC(=N)N)NC3=O)c3ccccc3C2(C)C)=[N+](CCCCn2nnc3c2-c2ccccc2CN(C(=O)CCC(=O)NCCNC(=O)CN(CCN(CC(=O)O)CC(=O)O)CCN(CC(=O)O)CC(=O)O)c2ccccc2-3)c2ccc(S(=O)(=O)[O-])cc21  unbound fraction (serum): 0.56
CCCC[C@H](NC(=O)CNC(=O)CNC(=O)c1ccc(NN)nc1)C(=O)N[C@H]1CC(=O)NCCCC[C@@H](C(N)=O)NC(=O)[C@H](Cc2c[nH]c3ccccc23)NC(=O)[C@H](CCCNC(=N)N)NC(=O)[C@@H](Cc2ccccc2)NC(=O)[C@H](Cc2c[nH]cn2)NC1=O [technetium-99m labelled]  uptake ratio (C57 mouse, B16/F1 melanoma; 2 h, together with: L-lysine; relative to: tumour over blood): 157
CCCC[C@H](NC(=O)CNC(=O)[C@H](CO)NC(=O)CNC(=O)c1ccc(NN)nc1)C(=O)N[C@H]1CC(=O)NCCCC[C@@H](C(N)=O)NC(=O)[C@H](Cc2c[nH]c3ccccc23)NC(=O)[C@H](CCCNC(=N)N)NC(=O)[C@@H](Cc2ccccc2)NC(=O)[C@H](Cc2c[nH]cn2)NC1=O [technetium-99m labelled]  uptake ratio (C57 mouse, B16/F1 melanoma; 2 h; relative to: tumour over blood): 98
CCCNC(=O)[C@H](CC(C)C)NC(=O)[C@H](Cc1c[nH]cn1)NC(=O)CNC(=O)[C@@H](NC(=O)[C@H](C)NC(=O)[C@H](Cc1c[nH]c2ccccc12)NC(=O)[C@H](CCC(N)=O)NC(=O)[C@@H](Cc1ccccc1)NC(=O)CCCCCNC(=O)CN1CCN(CC(=O)O)CCN(CC(=O)O)CCN(CC(=O)O)CC1)C(C)C [indium-111 labelled]  tissue uptake (Gastrin-releasing peptide receptor (Mus musculus, UniProt P21729); biodistribution, ligand; CF-1 mouse, small intestine; intravenous, 1 h): 0.9 ± 0.28 %ID/g
N=C(N)NCCC[C@@H]1NC(=O)[C@H](CCCCNC(=O)CCOCCOCCOCCOCCNC(=O)CC[C@H](NC(=O)CCOCCOCCOCCOCCNC(=O)CC[C@H](NC(=O)CN2CCN(CC(=O)O)CCN(CC(=O)O)CCN(CC(=O)O)CC2)C(=O)NCCOCCOCCOCCOCCC(=O)N[C@@H](CCC(=O)NCCOCCOCCOCCOCCC(=O)NCCCC[C@@H]2NC(=O)[C@@H](Cc3ccccc3)NC(=O)[C@H](CC(=O)O)NC(=O)CNC(=O)[C@H](CCCNC(=N)N)NC2=O)C(=O)NCCOCCOCCOCCOCCC(=O)NCCCC[C@@H]2NC(=O)[C@@H](Cc3ccccc3)NC(=O)[C@H](CC(=O)O)NC(=O)CNC(=O)[C@H](CCCNC(=N)N)NC2=O)C(=O)NCCOCCOCCOCCOCCC(=O)NCCCC[C@@H]2NC(=O)[C@@H](Cc3ccccc3)NC(=O)[C@H](CC(=O)O)NC(=O)CNC(=O)[C@H](CCCNC(=N)N)NC2=O)NC(=O)[C@@H](Cc2ccccc2)NC(=O)[C@H](CC(=O)O)NC(=O)CNC1=O [indium-111 labelled]  tumour to tissue ratio (athymic nude mice, female, U-87 MG glioma xenograft, tumour and kidney; intravenous, 0.5 h; relative to: tumour over kidney): 0.99 ± 0.19
CN[C@](C)(C[18F])C(=O)O  tracer uptake (A549 tumour model; host not given, bone; 2 h, tumour-bearing): 1.2 %ID/g
Cc1ncsc1-c1ccc(CNC(=O)[C@@H]2C[C@@H](OC(=O)OCCSSCCn3cc(CCCC(=O)N[C@@H](Cc4ccc(O)cc4)C(=O)N[C@@H](CCCNC(=N)N)C(=O)N[C@@H](CCCNC(=N)N)C(=O)N[C@@H](CCCNC(=N)N)C(=O)N[C@@H](CCCNC(=N)N)C(=O)N[C@@H](CCCNC(=N)N)C(=O)N[C@@H](CCCNC(=N)N)C(=O)N[C@@H](CCCNC(=N)N)C(=O)N[C@@H](CCCNC(=N)N)C(=O)N[C@@H](CCCNC(=N)N)C(N)=O)nn3)CN2C(=O)[C@@H](NC(=O)COCCOCCOCCNC(=O)C[C@@H]2N=C(c3ccc(Cl)cc3)c3c(sc(C)c3C)-n3c(C)nnc32)C(C)(C)C)cc1  released payload (UHPLC; PBS; 100 nM, 6 h, 37 °C, together with: 5 mM glutathione; relative to: total peak area): 100%
N=C(N)NCCC[C@@H]1NC(=O)[C@H](CCCCNC(=O)CNC(=O)CNC(=O)CNC(=O)CC[C@H](NC(=O)CCOCCOCCOCCOCCNC(=O)CC[C@H](NC(=O)CN2CCN(CC(=O)O)CCN(CC(=O)O)CCN(CC(=O)O)CC2)C(=O)NCCOCCOCCOCCOCCC(=O)N[C@@H](CCC(=O)NCC(=O)NCC(=O)NCC(=O)NCCCC[C@@H]2NC(=O)[C@@H](Cc3ccccc3)NC(=O)[C@H](CC(=O)O)NC(=O)CNC(=O)[C@H](CCCNC(=N)N)NC2=O)C(=O)NCC(=O)NCC(=O)NCC(=O)NCCCC[C@@H]2NC(=O)[C@@H](Cc3ccccc3)NC(=O)[C@H](CC(=O)O)NC(=O)CNC(=O)[C@H](CCCNC(=N)N)NC2=O)C(=O)NCC(=O)NCC(=O)NCC(=O)NCCCC[C@@H]2NC(=O)[C@@H](Cc3ccccc3)NC(=O)[C@H](CC(=O)O)NC(=O)CNC(=O)[C@H](CCCNC(=N)N)NC2=O)NC(=O)[C@@H](Cc2ccccc2)NC(=O)[C@H](CC(=O)O)NC(=O)CNC1=O [indium-111 labelled]  tumour to muscle ratio (female athymic nude mouse; intravenous, 3 µCi, 72 h, U-87 MG glioma xenograft; relative to: tumour over muscle): 10.2 ± 2.72
C[C@@H](O)[C@H](NC(=O)[C@@H]1CSSC[C@H](NC(=O)[C@@H](Cc2ccccc2)NC(=O)CN2CCCN3CCN(CCCN(CP(=O)(O)O)CC3)CC2)C(=O)N[C@@H](Cc2ccc(O)cc2)C(=O)N[C@H](Cc2c[nH]c3ccccc23)C(=O)N[C@@H](CCCCN)C(=O)N[C@@H]([C@@H](C)O)C(=O)N1)C(=O)O [copper-64 labelled]  uptake reduction by blocking (male Lewis rat, AR-42J tumour-bearing, SSTR2-expressing tissues; dose not given, 4 h, together with: Y3-TATE 200 µg coinjected; relative to: unblocked): ≥ 90%
N=C(N)NCCC[C@@H]1NC(=O)[C@H](CCCCNC(=O)CCOCCOCCOCCOCCNC(=O)CN2CCN(CC(=O)O)CCN(CC(=O)O)CCN(CC(=O)O)CC2)NC(=O)[C@@H](Cc2ccccc2)NC(=O)[C@H](CC(=O)O)NC(=O)CNC1=O [indium-111 labelled]  tumour to tissue ratio (athymic nude mice, female, U-87 MG glioma xenograft, tumour and lungs; intravenous, 1 h; relative to: tumour over lungs): 2.54 ± 0.45
N=C(N)NCCC[C@@H]1NC(=O)[C@H](CCCCNC(=O)CC[C@H](NC(=O)[C@H](CCCCNC(=O)c2ccc(NN)nc2)NC(=O)c2ccc(NN)nc2)C(=O)NCCCC[C@@H]2NC(=O)[C@@H](Cc3ccccc3)NC(=O)[C@H](CC(=O)O)NC(=O)CNC(=O)[C@H](CCCNC(=N)N)NC2=O)NC(=O)[C@@H](Cc2ccccc2)NC(=O)[C@H](CC(=O)O)NC(=O)CNC1=O [technetium-99m labelled]  tissue ratio (female athymic nude mice; intravenous, 1 h, U-87 MG glioma xenograft; relative to: tumour over muscle): 4.23 ± 1.27
CSCC[C@H](NC(=O)[C@H](CC(C)C)NC(=O)[C@H](Cc1c[nH]cn1)NC(=O)CNC(=O)[C@@H](NC(=O)[C@H](C)NC(=O)[C@H](Cc1c[nH]c2ccccc12)NC(=O)[C@H](CCC(N)=O)NC(=O)CCCCCNC(=O)CNC(=O)CNC(=O)CNC(=O)CSC(C)=O)C(C)C)C(N)=O [technetium-99m labelled]  tissue uptake (Swiss mouse, kidney; intravenous, 18.5 MBq, 30 min): 3.01 ± 0.78 %ID/g

Excerpt of the above:
N=C(N)NCCC[C@@H]1NC(=O)[C@H](CCCCNC(=O)CNC(=O)CNC(=O)CNC(=O)CC[C@H](NC(=O)CCOCCOCCOCCOCCNC(=O)CC[C@H](NC(=O)CN2CCN(CC(=O)O)CCN(CC(=O)O)CCN(CC(=O)O)CC2)C(=O)NCCOCCOCCOCCOCCC(=O)N[C@@H](CCC(=O)NCC(=O)NCC(=O)NCC(=O)NCCCC[C@@H]2NC(=O)[C@@H](Cc3ccccc3)NC(=O)[C@H](CC(=O)O)NC(=O)CNC(=O)[C@H](CCCNC(=N)N)NC2=O)C(=O)NCC(=O)NCC(=O)NCC(=O)NCCCC[C@@H]2NC(=O)[C@@H](Cc3ccccc3)NC(=O)[C@H](CC(=O)O)NC(=O)CNC(=O)[C@H](CCCNC(=N)N)NC2=O)C(=O)NCC(=O)NCC(=O)NCC(=O)NCCCC[C@@H]2NC(=O)[C@@H](Cc3ccccc3)NC(=O)[C@H](CC(=O)O)NC(=O)CNC(=O)[C@H](CCCNC(=N)N)NC2=O)NC(=O)[C@@H](Cc2ccccc2)NC(=O)[C@H](CC(=O)O)NC(=O)CNC1=O [indium-111 labelled]  tumour to muscle ratio (female athymic nude mouse; intravenous, 3 µCi, 72 h, U-87 MG glioma xenograft; relative to: tumour over muscle): 10.2 ± 2.72
